Results of several laboratories.
Every numbered part comes from another study and shows a few of its results, in no order. Changes are numbered by the printed parent chain.
Sequence of UniProt Q9FGV1 (whole entry, looked up): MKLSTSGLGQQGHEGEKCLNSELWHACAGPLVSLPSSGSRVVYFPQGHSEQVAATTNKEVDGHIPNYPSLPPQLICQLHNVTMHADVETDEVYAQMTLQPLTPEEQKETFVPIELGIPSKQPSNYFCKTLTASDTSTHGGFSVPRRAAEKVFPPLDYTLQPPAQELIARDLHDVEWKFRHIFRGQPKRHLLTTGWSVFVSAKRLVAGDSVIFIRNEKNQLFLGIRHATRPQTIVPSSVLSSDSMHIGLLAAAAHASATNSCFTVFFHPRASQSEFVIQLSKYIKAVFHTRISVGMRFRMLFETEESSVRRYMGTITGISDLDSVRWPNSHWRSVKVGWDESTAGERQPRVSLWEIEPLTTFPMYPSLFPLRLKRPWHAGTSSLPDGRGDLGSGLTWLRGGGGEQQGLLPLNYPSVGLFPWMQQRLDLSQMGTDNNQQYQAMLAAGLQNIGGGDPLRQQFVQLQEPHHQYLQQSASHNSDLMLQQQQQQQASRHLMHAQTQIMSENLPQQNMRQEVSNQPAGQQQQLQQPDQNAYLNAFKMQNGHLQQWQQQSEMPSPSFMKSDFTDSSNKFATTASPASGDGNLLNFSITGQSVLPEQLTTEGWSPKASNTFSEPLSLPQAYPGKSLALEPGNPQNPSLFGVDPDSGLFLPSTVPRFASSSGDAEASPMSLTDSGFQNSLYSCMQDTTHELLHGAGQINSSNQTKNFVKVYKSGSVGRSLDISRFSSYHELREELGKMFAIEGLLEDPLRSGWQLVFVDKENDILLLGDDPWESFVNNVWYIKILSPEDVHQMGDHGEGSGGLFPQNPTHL
Sequence of UniProt Q9ZTX8 (whole entry, looked up): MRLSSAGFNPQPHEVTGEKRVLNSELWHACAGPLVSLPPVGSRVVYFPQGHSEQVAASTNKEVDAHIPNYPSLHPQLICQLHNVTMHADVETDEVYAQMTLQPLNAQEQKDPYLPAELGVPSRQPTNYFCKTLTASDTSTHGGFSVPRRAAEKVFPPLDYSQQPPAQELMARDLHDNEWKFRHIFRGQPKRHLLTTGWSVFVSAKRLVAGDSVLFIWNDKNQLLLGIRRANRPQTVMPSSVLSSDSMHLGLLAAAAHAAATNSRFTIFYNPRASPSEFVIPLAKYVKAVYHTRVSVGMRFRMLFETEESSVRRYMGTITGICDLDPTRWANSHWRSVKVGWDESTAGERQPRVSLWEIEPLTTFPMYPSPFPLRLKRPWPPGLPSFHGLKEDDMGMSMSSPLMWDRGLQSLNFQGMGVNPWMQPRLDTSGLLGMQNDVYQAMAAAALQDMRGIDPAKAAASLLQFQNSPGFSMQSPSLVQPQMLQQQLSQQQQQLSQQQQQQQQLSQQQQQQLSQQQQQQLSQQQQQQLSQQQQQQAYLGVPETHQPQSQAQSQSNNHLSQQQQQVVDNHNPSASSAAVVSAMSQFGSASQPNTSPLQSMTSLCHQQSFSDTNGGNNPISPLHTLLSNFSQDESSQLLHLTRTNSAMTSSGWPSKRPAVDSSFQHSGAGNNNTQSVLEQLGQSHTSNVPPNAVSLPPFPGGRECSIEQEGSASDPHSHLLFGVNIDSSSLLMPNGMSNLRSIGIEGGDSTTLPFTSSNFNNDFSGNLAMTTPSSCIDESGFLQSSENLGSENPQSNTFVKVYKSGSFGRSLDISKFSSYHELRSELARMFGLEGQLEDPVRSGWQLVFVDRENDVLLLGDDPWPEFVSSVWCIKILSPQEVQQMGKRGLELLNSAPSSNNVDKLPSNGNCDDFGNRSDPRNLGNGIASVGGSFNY
Sequence of UniProt P93022 (whole entry, looked up): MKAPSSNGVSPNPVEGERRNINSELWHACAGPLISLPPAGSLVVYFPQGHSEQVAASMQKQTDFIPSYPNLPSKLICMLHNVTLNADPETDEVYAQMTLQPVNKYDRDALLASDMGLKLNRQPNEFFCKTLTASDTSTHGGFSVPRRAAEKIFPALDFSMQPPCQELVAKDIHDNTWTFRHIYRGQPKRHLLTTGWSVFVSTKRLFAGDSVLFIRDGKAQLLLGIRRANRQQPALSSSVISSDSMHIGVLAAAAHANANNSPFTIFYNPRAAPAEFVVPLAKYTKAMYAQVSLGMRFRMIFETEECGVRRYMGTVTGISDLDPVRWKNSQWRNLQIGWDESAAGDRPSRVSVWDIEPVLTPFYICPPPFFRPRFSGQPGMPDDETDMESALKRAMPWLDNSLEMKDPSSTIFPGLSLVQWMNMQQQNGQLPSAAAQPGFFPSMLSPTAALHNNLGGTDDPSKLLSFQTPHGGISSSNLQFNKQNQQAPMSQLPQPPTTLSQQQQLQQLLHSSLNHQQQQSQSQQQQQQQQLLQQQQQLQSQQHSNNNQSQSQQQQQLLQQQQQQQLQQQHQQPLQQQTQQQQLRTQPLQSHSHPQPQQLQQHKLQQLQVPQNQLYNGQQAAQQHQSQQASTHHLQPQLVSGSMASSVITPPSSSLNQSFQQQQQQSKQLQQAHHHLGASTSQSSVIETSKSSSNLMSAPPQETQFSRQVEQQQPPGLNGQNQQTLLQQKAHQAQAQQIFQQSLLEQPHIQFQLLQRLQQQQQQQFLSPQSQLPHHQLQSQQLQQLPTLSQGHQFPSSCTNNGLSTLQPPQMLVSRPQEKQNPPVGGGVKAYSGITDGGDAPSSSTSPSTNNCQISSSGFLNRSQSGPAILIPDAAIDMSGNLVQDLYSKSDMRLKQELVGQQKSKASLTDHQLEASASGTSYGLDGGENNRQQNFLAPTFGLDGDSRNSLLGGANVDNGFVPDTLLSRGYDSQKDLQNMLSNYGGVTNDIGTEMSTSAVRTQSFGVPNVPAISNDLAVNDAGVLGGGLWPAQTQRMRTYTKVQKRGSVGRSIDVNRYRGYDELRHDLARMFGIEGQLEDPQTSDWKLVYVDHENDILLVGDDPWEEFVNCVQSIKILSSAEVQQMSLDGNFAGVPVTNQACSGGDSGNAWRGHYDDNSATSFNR
Sequence of UniProt Q8RYC8 (whole entry, looked up): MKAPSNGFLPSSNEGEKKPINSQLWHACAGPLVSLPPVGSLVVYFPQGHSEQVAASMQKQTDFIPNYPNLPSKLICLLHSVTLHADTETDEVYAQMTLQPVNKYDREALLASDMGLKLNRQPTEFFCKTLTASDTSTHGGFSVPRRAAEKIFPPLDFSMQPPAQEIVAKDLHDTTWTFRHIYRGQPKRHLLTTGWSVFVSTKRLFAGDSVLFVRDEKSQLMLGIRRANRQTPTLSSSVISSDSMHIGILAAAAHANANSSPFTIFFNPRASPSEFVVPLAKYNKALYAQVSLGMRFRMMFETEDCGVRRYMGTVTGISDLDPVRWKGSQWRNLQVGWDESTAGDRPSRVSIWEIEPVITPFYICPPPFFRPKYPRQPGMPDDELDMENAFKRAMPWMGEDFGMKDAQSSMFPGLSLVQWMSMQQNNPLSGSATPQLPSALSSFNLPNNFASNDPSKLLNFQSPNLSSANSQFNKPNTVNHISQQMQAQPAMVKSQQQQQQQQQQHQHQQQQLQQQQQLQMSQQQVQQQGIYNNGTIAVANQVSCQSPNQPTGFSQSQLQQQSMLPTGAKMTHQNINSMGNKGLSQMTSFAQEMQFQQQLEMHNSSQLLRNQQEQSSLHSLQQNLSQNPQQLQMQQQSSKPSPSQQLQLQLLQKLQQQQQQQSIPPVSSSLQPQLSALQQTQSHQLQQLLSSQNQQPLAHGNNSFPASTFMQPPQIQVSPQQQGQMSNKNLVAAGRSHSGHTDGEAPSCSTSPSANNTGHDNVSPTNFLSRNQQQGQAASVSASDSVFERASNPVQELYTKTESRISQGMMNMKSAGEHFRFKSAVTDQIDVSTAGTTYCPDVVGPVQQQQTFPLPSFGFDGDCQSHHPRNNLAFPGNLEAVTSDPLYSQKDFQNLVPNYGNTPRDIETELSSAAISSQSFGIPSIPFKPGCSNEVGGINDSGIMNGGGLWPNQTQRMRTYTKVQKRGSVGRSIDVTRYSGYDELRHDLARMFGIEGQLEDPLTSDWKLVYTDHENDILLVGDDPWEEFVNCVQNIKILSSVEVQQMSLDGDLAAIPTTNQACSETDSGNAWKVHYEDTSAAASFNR
Sequence of UniProt Q9ZPY6 (whole entry, looked up): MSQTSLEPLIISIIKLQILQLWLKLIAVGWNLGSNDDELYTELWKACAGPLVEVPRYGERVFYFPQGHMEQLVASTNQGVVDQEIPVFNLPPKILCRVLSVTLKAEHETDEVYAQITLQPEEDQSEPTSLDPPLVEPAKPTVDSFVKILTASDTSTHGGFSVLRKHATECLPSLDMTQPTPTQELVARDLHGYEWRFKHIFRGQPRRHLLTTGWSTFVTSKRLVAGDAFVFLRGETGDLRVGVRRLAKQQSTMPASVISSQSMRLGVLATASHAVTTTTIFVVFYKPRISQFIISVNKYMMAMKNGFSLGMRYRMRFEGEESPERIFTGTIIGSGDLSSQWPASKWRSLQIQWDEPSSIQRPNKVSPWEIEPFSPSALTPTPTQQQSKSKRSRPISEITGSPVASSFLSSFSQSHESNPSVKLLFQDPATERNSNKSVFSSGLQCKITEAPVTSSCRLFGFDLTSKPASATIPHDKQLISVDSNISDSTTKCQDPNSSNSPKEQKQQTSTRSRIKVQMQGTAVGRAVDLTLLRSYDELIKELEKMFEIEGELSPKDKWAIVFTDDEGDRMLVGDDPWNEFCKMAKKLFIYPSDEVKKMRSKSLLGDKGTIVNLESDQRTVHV

Study 1
Molecule: B1 (IAA17)
Method: two-hybrid
Direction: higher = firmer interaction
B1: IAA17 (Arabidopsis thaliana, UniProt P93830); chain MMGSVELNLRETELCLGLPGGDTVAPVTGNKRGFSETVDLKLNLNNEPANKEGSTTHDVVTFDSKEKSACPKDPAKPPAKAQVVGWPPVRSYRKNVMVSCQKSSGGPEAAAFVKVSMDGAPYLRKIDLRMYKSYDELSNALSNMFSSFTMGKHGGEEGMIDFMNERKLMDLVNSWDYVPSYEDKDGDWMLVGDVPWPMFVDTCKRLRLMKGSDAIGLAPRAMEKCKSRA
The positive tests was 4 (ARF8 699-811 (Arabidopsis thaliana, UniProt Q9FGV1); reference: out of 4 tests).
The positive tests was 3 (ARF6 790-935 (Arabidopsis thaliana, UniProt Q9ZTX8); reference: out of 4 tests).
For ARF11 500-622 (Arabidopsis thaliana, UniProt Q9ZPY6); reference: out of 4 tests: positive tests read 1.
For ARF19 948-1086 (Arabidopsis thaliana, UniProt Q8RYC8); reference: out of 3 tests: positive tests read 3.
The positive tests was 3 (ARF7 1030-1164 (Arabidopsis thaliana, UniProt P93022); reference: out of 4 tests).

Study 2
Target: Sal-like protein 4, full length isoform B (SALL4, Homo sapiens, UniProt Q9UJQ4-2, residues 1-616)
Method: universal PBM
Form: double-stranded DNA, one strand shown
Sample: in vitro
Tested at: not given
Notes: 8-mer, flanks averaged, mean of replicates
Direction: higher = stronger binding
With `ACCTTGTA` the E-score was 0.206.
The E-score of `ACTCCACA` is reported as -0.0574.
With `ACGGCTCC` the E-score was -0.134.
`AGAACTGG` gave an E-score of -0.126.
For `GAGGAAAC`, the E-score was -0.0842.
`TAAACAGA` has an E-score of 0.191.
`ATGGAAGA` has an E-score of 0.165.
`CACATTCA` has an E-score of 0.0815.
`CTTGTAAC` gave an E-score of 0.176.
The E-score of `CACGCCTC` is reported as -0.184.
The E-score of `GGTCTCTA` is reported as -0.0768.
`ATCAGTGA` gave an E-score of 0.00867.
`CTGATGGC` gave an E-score of -0.182.
With `ATAAGTGC` the E-score was 0.153.
For `GGTATTCA`, the E-score was 0.136.
With `ACGCCCAT` the E-score was -0.0332.
With `GTGCACTA` the E-score was -0.0275.
For `CATTAGGG`, the E-score was 0.00324.
`CCACGTGG` gave an E-score of -0.441.
With `CTTTCACA` the E-score was 0.131.
With `GTGGACAC` the E-score was -0.0981.
`GCGAAGGA` has an E-score of -0.112.

Study 3
Target: Prothrombin, mature alpha-thrombin (F2, Homo sapiens, UniProt P00734)
Method: aptamer microarray, sandwich
Form: DNA with 2'F-ANA
Sample: in vitro
Tested at: 200 nM
Notes: whole 15-mer aptamer, many near background
With: Cy3 exosite-II aptamer, 400 nM
Direction: higher = stronger binding
Strand: GGTTGGTGTGGTTGG
Under “mean fluorescence intensity”, `2'F-ANA at 3 5 6 9 10` is recorded as 52.3 a.u.
`2'F-ANA at 2 3 8 9 10 13 14 15`: “mean fluorescence intensity” 284 a.u.
`2'F-ANA at 1 5 9 11` — result for “mean fluorescence intensity”: 52.4 a.u.
Under “mean fluorescence intensity”, `2'F-ANA at 2 3 4 9 10 11` is recorded as 256 a.u.
Under “mean fluorescence intensity”, `2'F-ANA at 1 4 6 8 9 10 11 12 14 15` is recorded as 162 a.u.
Under “mean fluorescence intensity”, `2'F-ANA at 2 5 6 7 8 11 13 14 15` is recorded as 70.5 a.u.
Under “mean fluorescence intensity”, `2'F-ANA at 2 5 7 9 12 15` is recorded as 156 a.u.
`2'F-ANA at 8 10` — result for “mean fluorescence intensity”: 172 a.u.
Under “mean fluorescence intensity”, `2'F-ANA at 1 2 7 9 11 14 15` is recorded as 53.9 a.u.
`2'F-ANA at 3 5 6 12 14`: “mean fluorescence intensity” 60.9 a.u.
For `2'F-ANA at 3 6 7 12`, “mean fluorescence intensity” read 1280 a.u.
For `2'F-ANA at 3 4 10 13`, “mean fluorescence intensity” read 283 a.u.
Under “mean fluorescence intensity”, `2'F-ANA at 2 5 9 11 12 13 14` is recorded as 113 a.u.
`2'F-ANA at 1 2 3 4 5 7 9 11 12 14` — result for “mean fluorescence intensity”: 48.1 a.u.
For `2'F-ANA at 1 3 5 6 9 10 12 13 15`, “mean fluorescence intensity” read 50.4 a.u.
Under “mean fluorescence intensity”, `2'F-ANA at 1 2 3 6 8 10 12 14` is recorded as 55.8 a.u.
Under “mean fluorescence intensity”, `2'F-ANA at 1 3 5 6 11 13 14` is recorded as 56 a.u.
For `2'F-ANA at 4 6 7 8 9 11 12 14 15`, “mean fluorescence intensity” read 91.4 a.u.
For `2'F-ANA at 2 3 4 6 7 9 11 13 14 15`, “mean fluorescence intensity” read 180 a.u.
`2'F-ANA at 1 2 5 6 9 11 12 13`: “mean fluorescence intensity” 65.2 a.u.
For `2'F-ANA at 1 2 7 8 9 11 13 14 15`, “mean fluorescence intensity” read 55.1 a.u.

Study 4
Target: RING finger protein unkempt homolog, zinc fingers 1-6, GST-SBP tag (UNK, Homo sapiens, UniProt Q9C0B0, residues 30-357)
Sequence of UniProt Q9C0B0 (30-357, looked up): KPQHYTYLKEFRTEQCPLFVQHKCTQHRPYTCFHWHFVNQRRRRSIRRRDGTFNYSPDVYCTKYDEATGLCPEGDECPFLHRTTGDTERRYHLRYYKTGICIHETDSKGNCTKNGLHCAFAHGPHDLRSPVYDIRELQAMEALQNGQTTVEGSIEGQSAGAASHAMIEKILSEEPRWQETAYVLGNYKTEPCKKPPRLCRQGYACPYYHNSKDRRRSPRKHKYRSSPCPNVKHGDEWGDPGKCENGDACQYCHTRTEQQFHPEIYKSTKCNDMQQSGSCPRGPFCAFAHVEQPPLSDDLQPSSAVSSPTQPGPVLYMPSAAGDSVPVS
Method: RNA Bind-n-Seq
Form: RNA
Sample: in vitro
Tested at: not given
Notes: RNA with constant flanks, human and mouse sites, ends assumed
Reference: input RNA pool
Direction: higher = stronger binding
Shared flanks, not repeated: GGGAGUUCUACAGUCCGACGAUC … CAACAGAGGAUUGAGCAUCA
For `UUGACUGACUUUGGCUUGUGCACUGGCUUCAGAUGGACACAUGACUCCAAGUACUACCAGAGUGGGGAUCACCCACGGCAAGAUAGCAUGGAUUUCAGUAACGAAUGGGGAGAUCCUUCC`, the bound/input enrichment was 0.103 ratio.
The bound/input enrichment of `UGCACUCUUCUGUUCAUUCUGACCCCUUCCUCAACCUCUUCACGCUGGCAUGUCCUUUUGUAGCAGUCUGUAACUUAACUAUAGUAUAAUGAAAAGAAUGACCUAUAAUAUAGGUGUUUU` is reported as 4.73 ratio.
`CCUCUAUUUAGAAGUGUAGGCAAUACCAUUGAGCCUGUCAUCCUGUUCCAGAAGAUGGGAGUGGGCAAGCUUGAGAUGUACGUGCUUAACCCAGUCAAAAGCAGCAAGGAAAUGCAGUAU` gave a bound/input enrichment of 0.448 ratio.
With `UUUAGGGCUGAACACAGGAUAAAAUGAAAGGAAUUCUUAGGAGCUUGGACCAUACUUGAAGGCUAGAGAGGGUGUGCCAUUGUUAUAAAGGACAUAGUUGGUAUACAUUUUCUGCUUCCA` the bound/input enrichment was 0.291 ratio.
`AUCAUGGCUACAAACAGACCAGAUACACUGGAUCCUGCUUUGCUGCGUCCAGGAAGAUUAGAUAGAAAAAUACAUAUUGAUUUGCCAAAUGAACAAGCAAGAUUAGACAUACUGAAAAUC` gave a bound/input enrichment of 55.1 ratio.
With `GAAGGACACUGCAACAAUAUACAUUGUUUGGCCAAAGCCAUCAACCAGAUUGCUGCAGCUUUGUUUACAAUUCACAAAGGAAGUAUUGAAGACCGACUUAAGGAAUUCCUGGCGCUUGCA` the bound/input enrichment was 0.168 ratio.
For `UGAGGAGACACGAAGGUGGUUCCCCAGCCGCUCAAAUUUCCGGACCACCGCGCUUUCCCCUCCUCAGCCUGGGCUGUGCUCUCUCUAGAAUCCUCGGGCCCCCACUUUCUUCCCAAACUC`, the bound/input enrichment was 0.658 ratio.
`CCAAAGCUGGCAGCACUUCUCCGUGUGUUCAGUACUGUGGUGAGGAGCAUUGGGGAACGCUUUAGCCCAAUUCGGGGUCCACCAAUUACAGAGGCAUACGUAACAGAUGUUCUAUACAGA` gave a bound/input enrichment of 0.116 ratio.
`GAUGGAAAAAUUUGUUCCUGGAGUUUGGACAUGCUUUCCCAUCCACAGGAUAGCAUGGAGUUGGUUCAUAAACAGUCAAAGGCAGUAGCUGUAACAUCUAUGUCUUUCCCUGUUGGAGAC` has a bound/input enrichment of 0.136 ratio.
With `ACAUGCACAGUGUAACUCCUGAAAGCUCUGACAAACCACCCUCAUUACCACCACUGAUGACAUCUCCAUUUGAUAAAAGGCAUGCCAGUCGCAUUUCACCAUCAUUAAGAUACAGUAACA` the bound/input enrichment was 0.183 ratio.
`AGGAGGAGGUUUGCAUCACGGAUCAUAGAUAGCCUGUUUAAUACAGUGACCGAUAAGAAGAUAGCUAUCUUGGGGUUUGCAUUCAAAAAGGAUACUGGUGAUACCAGAGAAUCCUCCAGU` gave a bound/input enrichment of 0.405 ratio.

Study 5
Target: CCNB3, cyclin fold, Cln2 fusion (human)
Method: yeast growth competition, sequencing
Sample: yeast
Notes: weak parent motif
Reference: not given
Direction: higher = stronger binding
Starting sequence: E2F2 docking peptide (human); LPAKRKLDLEGIG
`LPAKRKLDFEGIG [L9F]` — result for “normalised enrichment score”: 3.49.
`LPAKRALDLEGIG [K6A]`: “normalised enrichment score” 0.268.
For `LAAKRKLDLEGIG [P2A]`, “normalised enrichment score” read 0.354.
`APAKRKLDLEGIG [L1A]`: “normalised enrichment score” 0.54.
`LPAKRKLDLEGIA [G13A]` — result for “normalised enrichment score”: 1.04.
`LPAKKKLDFEGIG [R5K L9F]`: “normalised enrichment score” 1.81.
`LPAKAKADLEGIG [R5A L7A]`: “normalised enrichment score” 0.479.
`LPAKRKLALEGIG [D8A]`: “normalised enrichment score” 0.0616.
`LPAKRKADLEGIG [L7A]`: “normalised enrichment score” 0.00288.

Some of these lines once more (study 3):
Under “mean fluorescence intensity”, `2'F-ANA at 1 2 3 6 8 10 12 14` is recorded as 55.8 a.u.
Under “mean fluorescence intensity”, `2'F-ANA at 1 3 5 6 11 13 14` is recorded as 56 a.u.
For `2'F-ANA at 4 6 7 8 9 11 12 14 15`, “mean fluorescence intensity” read 91.4 a.u.
For `2'F-ANA at 2 3 4 6 7 9 11 13 14 15`, “mean fluorescence intensity” read 180 a.u.
`2'F-ANA at 1 2 5 6 9 11 12 13`: “mean fluorescence intensity” 65.2 a.u.
For `2'F-ANA at 1 2 7 8 9 11 13 14 15`, “mean fluorescence intensity” read 55.1 a.u.
